Results of several laboratories.
Protocols differ between the studies behind these lines. Several values in a cell are separate wells, animals, samples, runs or records. ± gives the spread as reported.

CO[C@@H]1[C@@H](OC(N)=O)[C@@H](O)[C@H](Oc2ccc3c(O)c(NC(=O)c4ccc(O)c(CC=C(C)C)c4)c(=O)oc3c2C)OC1(C)C
colony count (DLD-1 parental; 100 µM, replicate 2): 51

Oc1cccc(-c2cccc(O)n2)n1.[Cl-].[Cl-].[Ru+2].c1ccc(-c2ccnc3c2ccc2c(-c4ccccc4)ccnc23)cc1.c1ccc(-c2ccnc3c2ccc2c(-c4ccccc4)ccnc23)cc1
EC50 (MCF-10A; CCK-8 viability; white light 2 h): 30 nM

CC(C)(C)c1nc(-c2cccc(NS(=O)(=O)c3c(F)cccc3F)c2F)c(-c2ccnc(N)n2)s1.Cc1[nH]c2ccccc2c1CCNCc1ccc(/C=C/C(=O)NO)cc1
late apoptotic cells (C13; annexin V/PI flow cytometry; concentration not given, 48 h; reference: untreated): 3.9 ± 1.2%

Cc1cc(C)nc(SCC(=O)Nc2ncc(Cc3cccc(OCc4cn(Cc5ccc(C#N)cc5)nn4)c3)s2)n1
inhibition (PC-3M-luc; colony formation, colony forming; 10 µM): 30.4 ± 13.2%

O=C1CC[C@H](N2Cc3cc(-c4ccn5ncc(Cl)c5n4)ccc3C2=O)C(=O)N1
log2 fold change (MOLM-13; protein level, TMT proteomics, item: AAAS; 1 µM, 6 h; reference: DMSO): 0.0354

CC(=O)OC[C@H]1O[C@@H](n2cc(CSc3nc4ccccc4n3Cc3cn([C@@H]4O[C@H](COC(C)=O)[C@@H](OC(C)=O)C(OC(C)=O)[C@H]4OC(C)=O)nn3)nn2)[C@H](OC(C)=O)C(OC(C)=O)[C@@H]1OC(C)=O (stereo in doubt)
cytotoxicity (Caco-2; MTT; 250 ppm): 91.1%

Cc1ncsc1-c1ccc(C(C)NC(=O)C2CC(O)CN2C(=O)C(NC(=O)CCCCCCCCCCN2CCCC(Nc3ncc(Cl)c(Nc4ccccc4S(=O)(=O)C(C)C)n3)C2)C(C)(C)C)cc1 (centres unmarked)
log2 fold change (22Rv1; RNA-seq, item: ZNF646 mRNA; concentration not given; reference: DMSO): -2.14

CC(C)c1ccc(N(C)c2ccc3c(c2)OCC[C@H]3CNc2cnccc2C(=O)O)cc1
IC50 (RCM-1; cell growth or viability, ATP luminescence; 7 days): ≥ 10000 nM

CCCNC(=O)[C@H]1O[C@@H]1C(=O)N[C@H](C(=O)N1CCC[C@H]1C(=O)OCC1=C2C(C)=CC(C)=[N+]2[B-](C)(C)n2c(C)cc(C)c21)[C@@H](C)CC
EC50 (MCF-10A; cell viability, MTT; 72 h, dark): 27000 ± 11500 nM

CCc1c(-c2ccc3[nH]ncc3c2)cnc(N)c1-c1ccc(O)cc1
viability (CHP-212; cell growth or viability, SRB; 0.3906 µM): 104%

Cc1ccncc1.[Cl-].[Cl-].[Ru+2].c1cc(-c2ccc3cccnc3n2)nc(-c2ccc3cccnc3n2)c1.c1ccc2cc3nc4c5cccnc5c5ncccc5c4nc3cc2c1
phototherapeutic index (A-375; visible light 100 J/cm2; reference: dark EC50 over light EC50): 45

CNS(=O)(=O)Nc1nccc(Cc2c(C)c3ccc(Oc4ncccc4F)cc3oc2=O)c1F
IC50 (ES-2; cell viability; 7 days): > 1000 nM

[177Lu+3].[Cl-].[Cl-].[Cl-]
live cells (4T1; flow cytometry; 0.4 Bq/cell, 72 h): 65.8%

CC(C)(C)c1cc(-c2ccc3cccnc3n2)nc(-c2ccc3cccnc3n2)c1.[Cl-].[Cl-].[Ru+2].c1cnc2c(c1)ccc1cccnc12
phototoxicity index (A-375; resazurin; with: light 633 nm, 100 J/cm2; reference: dark EC50 over light EC50): 2

COC(=O)c1cc(NC2=NC(=O)C(=Cc3ccc(N(C)C)cc3)S2)ccc1OC(C)=O
metabolite level (MCF7; GC-MS, item: Dl-Phenylalanine; 1 µM; reference: DMSO): -0.14 fold change

COc1ccccc1-c1ccncc1C(=O)Nc1nnc(OCc2ccc(Cl)cc2)s1
colony count (DLD-1 parental; 2 µM, mean of replicates): 79 and 79.5 and 69

Cn1ncc2cc(-c3cncc(Cl)c3N3CCC4(CCNC4=O)CC3)ccc21
log2 fold change (LS174T; gene expression, microarray, item: TNFRSF12A mRNA; concentration not given, 24 h; reference: untreated cells): -2.63

Cc1cc(C)nc(SCC(=O)Nc2ncc(Cc3cccc4ccccc34)s2)n1
inhibition (PC-3M-luc; colony formation, colony forming; 10 µM): 13.8 ± 8.7%

Cc1cc(/C=C/c2ccc(O)c(O)c2)[nH]n1
cells in G2/M phase (A549; PI staining flow cytometry; 50 µM, 48 h): 40.8%

O=C(N1CCCC1)n1cc(-c2ccc(-c3ccccc3)cc2)nn1
SILAC ratio (mouse T-cells; N-terminal labelling enrichment, item: Uqcrh N-terminal peptides; 1 nM, 6 h, single tryptic peptide; reference: DMSO): 1.31 and 1.14

Cn1ncc(-c2ccc3c(=O)[nH]nc(CN)c3c2)c1-c1c(F)c(Cl)cc(OC2CC2)c1C#N
IC50 (NCI-H292; cell viability, inhibitor, CellTiter-Glo; 120 h, baseline-subtracted): 150 nM

CN(C)CCN1CCN(c2ccc3nc(-c4ccc5nc(-c6ccc(C(F)(F)F)cc6)[nH]c5c4)[nH]c3c2)CC1
growth percent (RXF 393; SRB; 10 µM, 48 h): 50.3%

O=C(CCCCCOc1ccc2ccccc2c1)N[C@@H](CO)C[C@@H](O)c1ccc(-c2ccccc2)cc1
ceramide level (HeLa; CERT activity, HPLC-MS/MS lipidomics, item: ceramide 24; 1 µM, 24 h, not cell-number normalised): 15200 pmol/sample and 20000 pmol/sample and 15600 pmol/sample

CCc1ccc(OCc2nnc(SC3CCCC3=O)n2C(C)c2ccccc2)cc1 (centres unmarked)
toxicity (HEK293T FOPFlash-transfected; viability, PrestoBlue; 10 µM, 24 h): 26.4%

CCN(CC)CC(=O)Nc1cccc(-n2cc(-c3ccc4ccc(-c5cn(-c6cccc(NC(=O)CN(CC)CC)c6)nn5)cc4c3)nn2)c1
fold regulation (RCC4; PCR angiogenesis array, item: LECT1; 5 x IC50, 4 h, normoxia; reference: untreated): 1.06

O=C(Nc1ccc(Sc2ccc3c(/C=C/c4ccccn4)n[nH]c3c2)cc1)C1CCCN1 (centres unmarked)
GI50 (Ba/F3 TEL-VEGFR1; cell growth, CCK-8): 4380 nM

CCOc1cncc(-c2ccc(NC(=O)C3(c4ccnc(NS(=O)(=O)C5CC5)n4)CCOCC3)nc2)n1
IC50 (MOLM-13; cell proliferation, CellTiter-Glo; 72 h): 76 nM

Cc1cc(Cl)cc(-c2ccnc3cc(CN4C(=O)C5C(C4=O)C5(C)C)sc23)c1C[C@@H]1CNCCO1 (some centres unmarked)
S phase cells (CHP-212 parental; PI flow cytometry; 0.3 µM, 24 h): 17.6%

CN1CCCNC(=O)c2cccc(c2)C(=O)NCCCN(C)CCCNc2cccc3c2C(=O)c2cccc(c2C3=O)NCCC1
log2 fold change (SAS; RNA-Seq, item: SRSF6 mRNA; 1 µM, 6 h; reference: untreated cells): 0.535

NC(=O)c1ccc(-c2ccccc2Cl)c2c3c([nH]c12)CCC(N)C3 (centres unmarked)
IC50 (Ramos; cell growth or viability; 96 h): 18.4 nM

CC(C)(C)c1cc(-c2ccc3cc4ccccc4nc3n2)nc(-c2ccc3cc4ccccc4nc3n2)c1.[Cl-].[Cl-].[Ru+2].c1ccc2cc3nc4c5cccnc5c5ncccc5c4nc3cc2c1
phototoxicity index (A-375; resazurin; with: light 523 nm, 100 J/cm2; reference: dark EC50 over light EC50): 3

CC(C)C[C@H](NC(=O)[C@H](CO)NC(=O)[C@@H](NC(=O)CNC(=O)[C@@H](N)CCCCN)C(C)C)C(=O)N[C@@H](CO)C(=O)N[C@@H](Cc1ccc(O)cc1)C(=O)N[C@@H](CCCNC(=N)N)C(=O)NCCCC[C@H](NC(=O)[C@H](CCCNC(=N)N)NC(=O)[C@H](Cc1ccc(O)cc1)NC(=O)[C@H](CO)NC(=O)[C@H](CC(C)C)NC(=O)[C@H](CO)NC(=O)[C@@H](NC(=O)CNC(=O)[C@@H](N)CCCCN)C(C)C)C(=O)NCC(=O)NCC(=O)N[C@@H](CS)C(=O)O
inhibition (4T1; cell invasion, Matrigel Transwell; concentration not given, 24 h, with: CXCL12 200 ng/mL; reference: PBS): 59%

COC(=O)c1cc(NC2=NC(=O)C(=Cc3ccc(C)cc3)S2)ccc1OC(C)=O
metabolite level (MCF7; GC-MS, item: L-Lysine; 1 µM; reference: DMSO): 0.52 fold change

CN(C)c1ccc(-n2cc(COC(=O)[C@]3(C)C=C(C(=O)OC(C)(C)C)C(=O)CC3)nn2)cc1
luminescence relative to PMA (AP-1 reporter HEK293; AP-1 reporter gene, luciferase reporter; 1 µM, 6 h, with: PMA 6 ng/mL; reference: PMA alone): 0.761

CCN(C(=O)c1cc(F)ccc1Oc1nncnc1N1CCC2(C1)CN([C@H](CCCN(C)CCOC)C(C)C)C2)C(C)C
GI50 (JAR; cell growth or viability; 72 h): > 10000 nM

Excerpt of the above:
CC(C)(C)c1nc(-c2cccc(NS(=O)(=O)c3c(F)cccc3F)c2F)c(-c2ccnc(N)n2)s1.Cc1[nH]c2ccccc2c1CCNCc1ccc(/C=C/C(=O)NO)cc1
late apoptotic cells (C13; annexin V/PI flow cytometry; concentration not given, 48 h; reference: untreated): 3.9 ± 1.2%

CCCNC(=O)[C@H]1O[C@@H]1C(=O)N[C@H](C(=O)N1CCC[C@H]1C(=O)OCC1=C2C(C)=CC(C)=[N+]2[B-](C)(C)n2c(C)cc(C)c21)[C@@H](C)CC
EC50 (MCF-10A; cell viability, MTT; 72 h, dark): 27000 ± 11500 nM

CCN(C(=O)c1cc(F)ccc1Oc1nncnc1N1CCC2(C1)CN([C@H](CCCN(C)CCOC)C(C)C)C2)C(C)C
GI50 (JAR; cell growth or viability; 72 h): > 10000 nM

Cc1ncsc1-c1ccc(C(C)NC(=O)C2CC(O)CN2C(=O)C(NC(=O)CCCCCCCCCCN2CCCC(Nc3ncc(Cl)c(Nc4ccccc4S(=O)(=O)C(C)C)n3)C2)C(C)(C)C)cc1 (centres unmarked)
log2 fold change (22Rv1; RNA-seq, item: ZNF646 mRNA; concentration not given; reference: DMSO): -2.14

Cc1cc(C)nc(SCC(=O)Nc2ncc(Cc3cccc4ccccc34)s2)n1
inhibition (PC-3M-luc; colony formation, colony forming; 10 µM): 13.8 ± 8.7%

O=C(Nc1ccc(Sc2ccc3c(/C=C/c4ccccn4)n[nH]c3c2)cc1)C1CCCN1 (centres unmarked)
GI50 (Ba/F3 TEL-VEGFR1; cell growth, CCK-8): 4380 nM
